Assay results of several laboratories.
Lines come from different studies, so protocols differ. “And” joins repeats or separate records; there may be more than shown. Numbers after ± are the reported error.
HRH2: Histamine H2 receptor (HRH2, Homo sapiens, UniProt P25021)
Sequence of UniProt Q7M759 (whole entry, looked up): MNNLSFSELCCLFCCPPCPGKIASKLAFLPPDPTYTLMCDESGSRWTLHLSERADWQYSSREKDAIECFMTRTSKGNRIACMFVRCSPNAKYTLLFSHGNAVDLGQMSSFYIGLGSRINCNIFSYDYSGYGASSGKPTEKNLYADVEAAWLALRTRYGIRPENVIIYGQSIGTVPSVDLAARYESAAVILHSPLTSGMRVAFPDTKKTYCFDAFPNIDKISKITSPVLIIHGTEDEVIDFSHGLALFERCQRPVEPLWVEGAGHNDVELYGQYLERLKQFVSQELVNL
Sequence of UniProt Q00987 (whole entry, looked up): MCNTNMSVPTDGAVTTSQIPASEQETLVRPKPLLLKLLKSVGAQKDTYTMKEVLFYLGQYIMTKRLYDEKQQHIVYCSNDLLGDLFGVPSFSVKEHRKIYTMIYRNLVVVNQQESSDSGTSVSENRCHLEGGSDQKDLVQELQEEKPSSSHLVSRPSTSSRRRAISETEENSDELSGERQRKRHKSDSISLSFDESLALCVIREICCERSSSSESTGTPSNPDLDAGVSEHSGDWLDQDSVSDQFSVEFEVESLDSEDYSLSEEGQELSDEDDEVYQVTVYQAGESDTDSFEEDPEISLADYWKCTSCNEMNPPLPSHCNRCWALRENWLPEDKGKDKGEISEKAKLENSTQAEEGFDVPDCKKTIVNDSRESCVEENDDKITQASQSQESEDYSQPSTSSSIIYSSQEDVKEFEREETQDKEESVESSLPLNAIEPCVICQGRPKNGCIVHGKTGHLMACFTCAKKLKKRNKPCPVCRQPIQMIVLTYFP
Sequence of UniProt Q9UH17 (whole entry, looked up): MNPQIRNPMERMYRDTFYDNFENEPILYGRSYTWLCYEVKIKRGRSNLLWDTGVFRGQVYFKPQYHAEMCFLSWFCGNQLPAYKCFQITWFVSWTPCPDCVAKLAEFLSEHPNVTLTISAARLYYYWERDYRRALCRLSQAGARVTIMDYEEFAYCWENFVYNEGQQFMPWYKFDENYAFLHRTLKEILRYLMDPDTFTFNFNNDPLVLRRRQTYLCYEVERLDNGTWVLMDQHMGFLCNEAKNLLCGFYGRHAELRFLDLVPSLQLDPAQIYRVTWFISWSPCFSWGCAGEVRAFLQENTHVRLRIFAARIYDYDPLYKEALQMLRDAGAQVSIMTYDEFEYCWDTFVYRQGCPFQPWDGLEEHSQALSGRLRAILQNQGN
Sequence of UniProt P25021 (whole entry, looked up): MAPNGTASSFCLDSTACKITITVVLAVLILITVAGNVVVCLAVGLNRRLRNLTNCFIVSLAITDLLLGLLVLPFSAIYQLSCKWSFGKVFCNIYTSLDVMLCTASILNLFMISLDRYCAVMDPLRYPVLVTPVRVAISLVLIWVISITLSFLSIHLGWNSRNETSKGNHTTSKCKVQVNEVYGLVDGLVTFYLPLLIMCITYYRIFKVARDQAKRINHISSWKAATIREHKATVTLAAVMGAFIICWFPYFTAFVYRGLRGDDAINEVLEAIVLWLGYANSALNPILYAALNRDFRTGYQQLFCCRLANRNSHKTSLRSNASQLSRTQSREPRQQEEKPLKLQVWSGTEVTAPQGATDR
Sequence of UniProt Q9Y2J8 (whole entry, looked up): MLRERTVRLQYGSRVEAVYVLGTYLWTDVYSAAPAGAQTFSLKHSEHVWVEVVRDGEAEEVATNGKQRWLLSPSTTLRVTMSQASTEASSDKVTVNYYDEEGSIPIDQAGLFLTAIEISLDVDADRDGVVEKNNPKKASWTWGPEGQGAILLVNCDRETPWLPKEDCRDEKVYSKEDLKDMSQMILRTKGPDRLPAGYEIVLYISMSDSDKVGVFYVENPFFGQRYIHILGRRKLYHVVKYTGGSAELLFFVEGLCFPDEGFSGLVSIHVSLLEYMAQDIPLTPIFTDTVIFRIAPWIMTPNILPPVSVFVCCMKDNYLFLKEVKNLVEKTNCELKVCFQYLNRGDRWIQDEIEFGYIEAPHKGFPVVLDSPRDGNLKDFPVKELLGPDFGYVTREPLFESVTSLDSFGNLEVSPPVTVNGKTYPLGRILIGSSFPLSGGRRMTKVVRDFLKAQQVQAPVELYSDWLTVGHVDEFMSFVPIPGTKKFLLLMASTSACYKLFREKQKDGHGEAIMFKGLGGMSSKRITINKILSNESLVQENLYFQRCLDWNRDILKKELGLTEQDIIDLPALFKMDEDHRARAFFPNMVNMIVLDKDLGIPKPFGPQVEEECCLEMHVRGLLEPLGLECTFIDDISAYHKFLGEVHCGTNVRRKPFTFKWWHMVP
Sequence of UniProt Q04912 (whole entry, looked up): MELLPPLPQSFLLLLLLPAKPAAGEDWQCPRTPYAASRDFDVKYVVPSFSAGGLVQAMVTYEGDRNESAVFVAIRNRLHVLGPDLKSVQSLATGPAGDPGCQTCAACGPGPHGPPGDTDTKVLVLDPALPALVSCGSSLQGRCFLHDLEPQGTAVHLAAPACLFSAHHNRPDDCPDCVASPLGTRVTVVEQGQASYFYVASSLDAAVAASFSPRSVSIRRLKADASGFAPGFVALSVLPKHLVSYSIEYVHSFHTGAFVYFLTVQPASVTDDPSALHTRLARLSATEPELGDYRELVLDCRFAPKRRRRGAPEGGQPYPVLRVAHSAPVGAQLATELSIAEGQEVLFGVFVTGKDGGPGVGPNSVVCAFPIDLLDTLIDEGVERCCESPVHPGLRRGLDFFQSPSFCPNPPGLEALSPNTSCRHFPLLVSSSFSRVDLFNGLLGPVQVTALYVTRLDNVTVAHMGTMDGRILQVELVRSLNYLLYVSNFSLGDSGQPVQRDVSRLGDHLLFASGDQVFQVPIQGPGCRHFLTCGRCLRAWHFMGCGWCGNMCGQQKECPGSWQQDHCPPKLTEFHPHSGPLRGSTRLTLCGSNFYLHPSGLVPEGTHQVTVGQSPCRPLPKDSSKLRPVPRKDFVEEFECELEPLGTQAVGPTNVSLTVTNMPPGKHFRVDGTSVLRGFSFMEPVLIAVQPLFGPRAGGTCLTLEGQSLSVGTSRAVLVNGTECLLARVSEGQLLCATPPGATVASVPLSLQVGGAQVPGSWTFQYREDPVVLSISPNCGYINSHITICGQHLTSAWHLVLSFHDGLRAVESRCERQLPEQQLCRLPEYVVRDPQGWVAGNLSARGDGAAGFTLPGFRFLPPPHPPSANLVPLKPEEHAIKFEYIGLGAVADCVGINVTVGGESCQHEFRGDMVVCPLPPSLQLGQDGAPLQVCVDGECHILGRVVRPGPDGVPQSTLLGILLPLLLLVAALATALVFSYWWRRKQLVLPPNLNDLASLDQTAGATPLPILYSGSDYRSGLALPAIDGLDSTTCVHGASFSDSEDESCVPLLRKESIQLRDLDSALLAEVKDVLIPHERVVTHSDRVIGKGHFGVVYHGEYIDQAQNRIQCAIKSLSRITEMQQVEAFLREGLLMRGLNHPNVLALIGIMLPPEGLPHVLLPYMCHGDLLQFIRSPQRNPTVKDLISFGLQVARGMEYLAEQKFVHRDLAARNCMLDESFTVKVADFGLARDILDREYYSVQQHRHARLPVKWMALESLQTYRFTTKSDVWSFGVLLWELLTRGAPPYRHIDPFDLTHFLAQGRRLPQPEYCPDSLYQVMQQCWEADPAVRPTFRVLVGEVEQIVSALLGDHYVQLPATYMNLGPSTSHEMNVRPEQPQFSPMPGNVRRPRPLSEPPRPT
Sequence of UniProt Q08460 (whole entry, looked up): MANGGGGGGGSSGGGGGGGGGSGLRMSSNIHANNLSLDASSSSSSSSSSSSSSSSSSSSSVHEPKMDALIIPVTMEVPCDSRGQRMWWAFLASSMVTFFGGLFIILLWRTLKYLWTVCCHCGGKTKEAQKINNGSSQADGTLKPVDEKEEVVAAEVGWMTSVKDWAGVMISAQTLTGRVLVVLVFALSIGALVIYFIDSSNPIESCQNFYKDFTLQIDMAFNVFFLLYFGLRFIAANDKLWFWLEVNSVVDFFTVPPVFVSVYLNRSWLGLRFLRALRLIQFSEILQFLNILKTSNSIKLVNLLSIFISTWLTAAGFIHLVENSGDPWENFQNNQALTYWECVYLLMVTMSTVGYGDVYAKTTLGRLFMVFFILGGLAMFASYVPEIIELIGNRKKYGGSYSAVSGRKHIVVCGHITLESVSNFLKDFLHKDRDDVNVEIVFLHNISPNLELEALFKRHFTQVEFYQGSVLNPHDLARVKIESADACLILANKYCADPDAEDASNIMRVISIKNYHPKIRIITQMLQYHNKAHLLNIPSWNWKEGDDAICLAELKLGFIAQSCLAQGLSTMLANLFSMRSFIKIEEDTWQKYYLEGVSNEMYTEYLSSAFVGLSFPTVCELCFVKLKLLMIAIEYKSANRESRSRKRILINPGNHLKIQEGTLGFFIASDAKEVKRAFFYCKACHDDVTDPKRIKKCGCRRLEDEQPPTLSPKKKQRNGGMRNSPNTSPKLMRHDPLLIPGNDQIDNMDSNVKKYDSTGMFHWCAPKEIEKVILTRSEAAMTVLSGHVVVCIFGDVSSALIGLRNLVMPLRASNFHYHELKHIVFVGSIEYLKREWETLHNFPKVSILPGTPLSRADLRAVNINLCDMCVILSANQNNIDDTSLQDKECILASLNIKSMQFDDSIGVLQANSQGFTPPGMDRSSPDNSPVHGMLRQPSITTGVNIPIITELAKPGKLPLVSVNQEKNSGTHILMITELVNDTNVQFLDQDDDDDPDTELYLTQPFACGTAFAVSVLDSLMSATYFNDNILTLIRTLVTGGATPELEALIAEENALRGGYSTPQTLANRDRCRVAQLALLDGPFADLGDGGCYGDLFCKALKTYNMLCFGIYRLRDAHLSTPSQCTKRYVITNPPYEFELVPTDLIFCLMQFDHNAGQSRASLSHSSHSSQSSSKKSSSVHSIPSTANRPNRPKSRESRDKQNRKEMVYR

Compound = C/C(=N\OCCCN1CCCCC1)c1ccc(C(F)(F)F)cc1; target or system = HRH2; test = agonist, cAMP; conditions = 10 µM; measurement = activation; value = -2.72%
Compound = CC[C@H](C)[C@@H]([C@@H](CC(=O)N1CCC[C@H]1[C@H](OC)[C@@H](C)C(=O)N[C@H](C)[C@@H](O)c1ccccc1)OC)N(C)C(=O)[C@@H](NC(=O)[C@H](C(C)C)N(C)C(=O)OCc1ccc(NC(=O)[C@H](CCCNC(N)=O)NC(=O)[C@@H](NC(=O)CCCCCN2C(=O)CC(SC[C@H](NC(=O)[C@H](CC(=O)O)NC(=O)[C@H](Cc3ccc(O)cc3)NC(=O)[C@H](Cc3c[nH]c4ccccc34)NC(=O)[C@@H](N)CCCNC(=N)N)C(=O)O)C2=O)C(C)C)cc1)C(C)C (stereo partly shown); system = C57BL/6 mouse, healthy, liver; conditions = intraperitoneal, 2.5 mg/kg, 24 h; measurement = concentration; value = not detected
Compound = Cc1nc2cccc(OCC(C)(C)C(=O)NC(C)C)c2c(N)c1C(=O)[O-].[Na+]; target or system = Salmonella typhimurium; system = TA1535; conditions = 0.13 mg per plate, without S9, plate incorporation; measurement = revertant colonies per plate; value = 16 ± 2
Compound = N[C@H](C(=O)N1CCCC1)C1CCN(c2nccc3c(-c4ncc(Cl)cc4Cl)cccc23)CC1; target or system = PADI2 (Homo sapiens, UniProt Q9Y2J8); test = thermal shift; conditions = 30 µM; measurement = melting temperature; value = 70.5 °C
Compound = CC[C@H](C)[C@@H]1NC(=O)[C@H](CC(C)C)NC(=O)CNC(=O)[C@H](CCCNC(=N)N)NC(=O)[C@H](Cc2c[nH]c3ccccc23)NC(=O)[C@H](CCSC)NC(=O)[C@H](CO)NC(=O)[C@H](CCC(=O)O)NC(=O)[C@H](Cc2ccccc2)NC(=O)[C@H](CC(=O)O)NC(=O)[C@H]([C@@H](C)O)NC(=O)CNC(=O)[C@H](CCC(=O)O)NC(=O)[C@H]([C@@H](C)O)NC(=O)CNC(=O)[C@H](CC(=O)O)NC1=O; target or system = MDM2 (Homo sapiens, UniProt Q00987); test = MDM2-ligand binding, inhibitor, AlphaLISA competition; conditions = 0.09766 µM, together with: GST-tagged MDM2 ligand; scale = lower = stronger inhibition; measurement = AlphaLISA signal; value = 9140 a.u. and 9320 a.u. and 9720 a.u.
Compound = CC(C)CC(O)(CC(C)C)c1cn(C(=O)N2CCCC2)nn1; target or system = Alpha/beta hydrolase domain-containing protein 17B (Abhd17b, Mus musculus, UniProt Q7M759); test = probe labelling, inhibitor, item: Fam108b1; system = mouse, brain; conditions = i.p., 0.8 mg/kg, 4 h, single peptide; scale = baseline: treated over vehicle mice, lower = stronger inhibition; measurement = activity ratio-of-ratios; value = 1.23 and 1.75 and 1.62 and 1.88
Compound = [CH3][Ti+2][O]C(=O)c1ccc([S][Au][PH](c2ccccc2)(c2ccccc2)c2ccccc2)cc1.c1cc[cH-]c1.c1cc[cH-]c1; target or system = MAPK1 (Homo sapiens, UniProt P28482); test = kinase activity, HotSpot radiometric; conditions = 1 µM, together with: ATP 10 µM; scale = baseline: vehicle; measurement = remaining activity; value = 107% and 109%
Compound = CCNC(=S)NN=Cc1c2ccccc2cc2ccccc12.Cc1ccc(C(C)C)cc1.[Cl-].[Cl-].[Ru+2]; target or system = Albumin (ALB, Homo sapiens, UniProt P02768); test = binding, van't Hoff, modified Stern-Volmer; conditions = concentration not given; measurement = entropy change (ΔS°); value = 255 J/mol/K
Compound = Nc1ccc(/C=C/C(=O)N2CCc3c(oc4c(-c5ccc(F)cc5)cc(-c5ccc(C(=O)N6CCC(F)(F)CC6)cn5)cc34)C2)cn1; target or system = IGF1R (Homo sapiens, UniProt P08069); test = binding, competition with immobilised ligand; conditions = 1 µM; measurement = remaining binding; value = 100%
Compound = O=C(CCCC[C@@H]1SC[C@@H]2NC(=O)N[C@@H]21)NCCCCCCCCN1[C@H]2[C@H](O)[C@@H](O)[C@H](O[C@@H]3OC[C@@H](O)[C@H](O)[C@H]3O)C[C@H]21 (stereo partly shown); target or system = xlnC (Aspergillus niger, UniProt A2QFV7); test = activity-based probe pulldown; system = Aspergillus niger, secretome; scale = baseline: total secretome; measurement = enrichment; value = 3.6 fold and 2.6 fold and 3 fold
Compound = CC(C)[C@H]1NC(=O)C[C@H]2/C=C/CCSSC[C@@H](NC1=O)C(=O)N[C@H](Cc1cccc3ccccc13)C(=O)NCC(=O)O2; target or system = EGFR (Homo sapiens, UniProt P00533, del746-750); test = enzyme activity, inhibitor; conditions = 10 µM; measurement = inhibition; value = -2.8%
Compound = CN(C)[C@H]1C[C@@]23CC[C@@]4(O2)C(=CC[C@]2(C)[C@@H](c5ccc6ccncc6c5)CC[C@H]24)C=C3[C@@H](O)[C@@H]1O; target or system = MAP2K2 (Homo sapiens, UniProt P36507); test = ATP probe labelling, inhibitor, KiNativ profiling; conditions = 1 µM; measurement = inhibition; value = 0.1%
Compound = CC[C@H](C)[C@H](NC(=O)[C@H](CCCNC(=N)N)NC(=O)[C@H](CCCNC(=N)N)NC(=O)[C@H](CC(C)C)NC(=O)[C@H](Cc1ccccc1)NC(=O)CNC(=O)CNC(=O)[C@@H](N)Cc1ccc(O)cc1)C(=O)N[C@@H](CCCNC(=N)N)C(=O)N1CCC[C@H]1C(=O)N[C@@H](CCCCN)C(=O)N[C@@H](CC(C)C)C(=O)N[C@@H](CCCCN)C(=O)O; target or system = GPR139 (Homo sapiens, UniProt Q6DWJ6); test = GoA activation, agonist, BRET; conditions = 40 µM; measurement = maximal G protein activation; value = 100%
Compound = CCO[C@H]1[C@H](O)[C@@H](N)[C@@H](O[C@H]2[C@H](O[C@@H]3O[C@H](CO)[C@@H](O[C@H]4O[C@@H](CN)[C@@H](O)[C@H](O)[C@H]4N)[C@H]3O)[C@@H](O)[C@H](N)C[C@@H]2N)O[C@@H]1CO; target or system = HRH2; test = radioligand binding; conditions = 10 µM, 1% DMSO; measurement = specific binding; value = -12%
Compound = CCOC(=O)[C@@H]1Cc2c(cc([N+](=O)[O-])cc2[N+](=O)[O-])[C@H](O)[C@]12C(=O)Nc1ccc(Br)cc12; target or system = PAK1 (Homo sapiens, UniProt Q13153); test = binding, competition with immobilised ligand; conditions = 0.1 µM; measurement = remaining binding; value = 81%
Compound = CN(C)CCCSC(=S)N1CCN(C(=O)/C=C/c2coc3ccccc3c2=O)CC1; target or system = Nucleoprotein (N, Tomato spotted wilt virus, UniProt P25999, Y184A); test = binding, microscale thermophoresis; conditions = 250 µM; scale = dose series; measurement = MST response; value = 851 a.u.
Compound = C=CC(=O)Nc1cc(-c2ccc(C(=O)N3CCCC(O)(CC)C3)cc2)ccc1F (stereo not shown); target or system = DNA dC->dU-editing enzyme APOBEC-3B, C-terminal domain (Homo sapiens, UniProt Q9UH17); test = covalent adduct, intact protein MS, item: mass +397 Da adduct of 25735 Da; conditions = 125 µM, 5 h, 5-fold molar excess; measurement = adducted protein; value = 38% and 53%
Compound = C#CCCCCOc1ccc2c(c1)CCCN2C(=O)CCl; target or system = mRNA turnover protein 4 homolog (Homo sapiens, UniProt Q9UKD2); test = mass spectrometry profiling, item: MRTO4; system = H460 cell lysate; conditions = 100 µM over 10 µM, UniProt Q9UKD2; scale = baseline: high over low concentration; measurement = reactivity ratio; value = 1.43
Compound = O=C1NC2(CC2)COc2ncc(F)cc2[C@H]2COCCN2c2ccn3ncc1c3n2; system = Sprague-Dawley rat, male, serum; conditions = oral, 10 mg/kg/day, end of recovery, 4-week subacute toxicity; measurement = serum total bilirubin; value = 1.4 ± 0.3 µmol/L
Compound = CC[C@H](C)[C@H](NC(=O)[C@H](CO)NC(=O)[C@H](Cc1ccc(O)cc1)NC(=O)[C@H](Cc1ccc(O)cc1)NC(=O)[C@H](CC(N)=O)NC(=O)CNC(=O)[C@H](CO)NC(=O)[C@H](Cc1ccc(O)cc1)NC(=O)[C@H](CO)NC(=O)[C@H](CO)NC(=O)[C@H](CC(N)=O)NC(=O)COCCOCCNC(=O)CN1CCN(CC(=O)O)CCN(CC(=O)O)CCN(CC(=O)O)CC1)C(=O)N[C@@H](CC(C)C)C(N)=O [copper-64 labelled]; test = dynamic PET; system = mouse, tamoxifen-induced PDAC, blood; conditions = intravenous, 0.1 µg/mouse, 1.4 min; measurement = tumour uptake; value = 24.6 %ID/mL
Compound = CC(C)(C)C(=O)OCOP(=O)(OCOC(=O)C(C)(C)C)C1CCCN(O)C1=O (stereo not shown); target or system = SK-MEL-28; measurement = log LC50; value = -5.2 log M
Compound = O=C1NC(=O)c2c1c1cc(F)c[n+]3c1c1c2c2cc(O)ccc2[n]1[Ru-4]312([N]=C=S)[S+]3CC[S+]1CC[S+]2CC3 (stereo not shown); target or system = GRK5 (Homo sapiens, UniProt P34947); test = enzyme activity; conditions = 100 nM, human enzyme, together with: 10 µM ATP; scale = baseline: untreated; measurement = remaining activity; value = 55%
Compound = CC[C@@H](C)[C@@H](NC(=O)[C@@H](CCC(N)=O)NC(=O)[C@H](NC(=O)[C@H]1CCCN1C(=O)[C@H](NC(=O)[C@@H](CO)NC(=O)[C@@H](Cc1ccccc1)NC(=O)[C@H]1CCCN1C(=O)[C@@H](CCC(N)=O)NC(=O)[C@H](N)CCSC)[C@H](C)CC)C(C)C)C(=O)N[C@@H](C(=O)N[C@H](CC(C)C)C(=O)N[C@H](CCC(N)=O)C(=O)NCC(=O)N[C@H](CO)C(=O)N[C@H](CCCNC(=N)N)C(=O)N[C@H](CCCNC(=N)N)C(=O)N[C@H](CCCNC(=N)N)C(=O)N[C@H](CCC(N)=O)C(=O)NCC(=O)N[C@H](CCCNC(=N)N)C(N)=O)[C@H](C)O; target or system = Kcnma1 (Mus musculus, UniProt Q08460); test = ion current, blocker, inside-out patch clamp; system = Xenopus oocytes; conditions = +140 mV, together with: 10 µM cytosolic Ca2+; measurement = Hill coefficient; value = 0.96
Compound = Cc1cc(C(=O)Nc2nc3cccc(C)c3n2[C@H]2CCCCN(C(=O)/C=C/CN(C)C)C2)ccn1; target or system = Trypanosoma brucei; system = CLK1 C215S overexpressing; conditions = 15 x EC50; measurement = survival; value = 93.9% and 93.2% and 87.4%
Compound = COc1ccccc1-c1n[nH]c2nc(N[C@H]3CC[C@H](NS(=O)(=O)CC(C)C)CC3)ncc12; test = bead binding, competition bead pull-down, item: LMJF.30.2550; system = Leishmania donovani extract; conditions = 10 µM; scale = baseline: vehicle; measurement = relative abundance; value = 0.84
Compound = CC(=O)N[C@@H](CCC(N)=O)C(=O)N[C@@H](CC1CCCCC1)C(=O)N[C@@H](CNC(=O)CCl)C(=O)N[C@@H](CC(C)C)C(=O)N[C@@H](Cc1ccccc1)C(=O)O; target or system = Beta sliding clamp (Escherichia coli, UniProt P0A988, H175G); test = binding, isothermal titration calorimetry; conditions = 25 °C, H175G mutant peptide; measurement = ΔH; value = -9.7 kcal/mol
Compound = CS(C)(=O)=Nc1ccc(-c2ccc(-c3nc4cc(O[C@@H]5CO[C@H]6[C@@H]5OC[C@H]6O)[nH]c4cc3F)cc2)cc1; target or system = MST1R (Homo sapiens, UniProt Q04912); test = enzyme activity, inhibitor; conditions = 10 µM; measurement = inhibition; value = 11%
Compound = COc1ccccc1-c1n[nH]c2nc(NC3CCN(C(=O)Cc4ccc(F)cc4F)CC3)ncc12; test = bead binding, competition bead pull-down, item: LINJ.35.1820; system = Leishmania donovani extract; conditions = 10 µM; scale = baseline: vehicle; measurement = relative abundance; value = 1.14

Excerpt of the above:
Compound = O=C1NC2(CC2)COc2ncc(F)cc2[C@H]2COCCN2c2ccn3ncc1c3n2; system = Sprague-Dawley rat, male, serum; conditions = oral, 10 mg/kg/day, end of recovery, 4-week subacute toxicity; measurement = serum total bilirubin; value = 1.4 ± 0.3 µmol/L
Compound = CC[C@H](C)[C@H](NC(=O)[C@H](CO)NC(=O)[C@H](Cc1ccc(O)cc1)NC(=O)[C@H](Cc1ccc(O)cc1)NC(=O)[C@H](CC(N)=O)NC(=O)CNC(=O)[C@H](CO)NC(=O)[C@H](Cc1ccc(O)cc1)NC(=O)[C@H](CO)NC(=O)[C@H](CO)NC(=O)[C@H](CC(N)=O)NC(=O)COCCOCCNC(=O)CN1CCN(CC(=O)O)CCN(CC(=O)O)CCN(CC(=O)O)CC1)C(=O)N[C@@H](CC(C)C)C(N)=O [copper-64 labelled]; test = dynamic PET; system = mouse, tamoxifen-induced PDAC, blood; conditions = intravenous, 0.1 µg/mouse, 1.4 min; measurement = tumour uptake; value = 24.6 %ID/mL
Compound = CC(C)(C)C(=O)OCOP(=O)(OCOC(=O)C(C)(C)C)C1CCCN(O)C1=O (stereo not shown); target or system = SK-MEL-28; measurement = log LC50; value = -5.2 log M
